Measured values gathered from unrelated publications.
Parts stem from different laboratories: compare values within a part only. Values joined by “and” are separate records of one study, mostly repeats; a detail may differ.
Sequence of UniProt P17948 (whole entry, looked up): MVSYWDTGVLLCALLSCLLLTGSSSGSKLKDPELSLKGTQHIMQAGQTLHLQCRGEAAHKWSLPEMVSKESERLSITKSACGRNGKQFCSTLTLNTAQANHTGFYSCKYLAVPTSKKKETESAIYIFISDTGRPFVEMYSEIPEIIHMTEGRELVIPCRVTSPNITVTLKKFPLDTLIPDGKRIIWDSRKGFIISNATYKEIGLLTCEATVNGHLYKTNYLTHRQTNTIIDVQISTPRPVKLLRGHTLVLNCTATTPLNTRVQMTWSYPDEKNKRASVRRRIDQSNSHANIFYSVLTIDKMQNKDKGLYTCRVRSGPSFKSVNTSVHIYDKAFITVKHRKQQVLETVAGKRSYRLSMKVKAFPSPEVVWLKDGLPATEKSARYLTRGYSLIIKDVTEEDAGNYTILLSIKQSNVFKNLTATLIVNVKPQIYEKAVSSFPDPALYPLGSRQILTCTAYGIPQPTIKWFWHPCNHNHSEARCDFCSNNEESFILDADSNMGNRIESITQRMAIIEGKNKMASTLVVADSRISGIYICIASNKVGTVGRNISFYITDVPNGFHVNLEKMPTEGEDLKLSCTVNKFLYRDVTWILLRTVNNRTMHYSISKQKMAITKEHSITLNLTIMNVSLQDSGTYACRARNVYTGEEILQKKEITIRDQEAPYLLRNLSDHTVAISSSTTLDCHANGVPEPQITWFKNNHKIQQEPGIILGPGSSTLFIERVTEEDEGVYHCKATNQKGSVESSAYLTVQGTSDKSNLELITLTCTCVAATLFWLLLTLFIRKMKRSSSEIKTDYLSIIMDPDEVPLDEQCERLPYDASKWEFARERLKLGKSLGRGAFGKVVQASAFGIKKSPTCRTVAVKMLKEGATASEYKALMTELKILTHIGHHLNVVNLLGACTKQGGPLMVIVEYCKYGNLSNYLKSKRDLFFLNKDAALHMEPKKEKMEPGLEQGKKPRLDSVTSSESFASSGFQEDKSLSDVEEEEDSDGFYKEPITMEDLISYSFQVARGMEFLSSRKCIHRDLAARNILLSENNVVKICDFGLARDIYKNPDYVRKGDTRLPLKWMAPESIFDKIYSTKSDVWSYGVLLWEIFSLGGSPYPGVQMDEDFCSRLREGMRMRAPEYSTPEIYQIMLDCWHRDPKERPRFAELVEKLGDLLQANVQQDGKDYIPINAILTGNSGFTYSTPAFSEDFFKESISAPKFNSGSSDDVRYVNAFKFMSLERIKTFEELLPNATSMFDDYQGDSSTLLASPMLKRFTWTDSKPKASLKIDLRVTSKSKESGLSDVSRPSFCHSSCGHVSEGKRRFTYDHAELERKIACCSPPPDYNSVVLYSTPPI
Sequence of UniProt P52564 (whole entry, looked up): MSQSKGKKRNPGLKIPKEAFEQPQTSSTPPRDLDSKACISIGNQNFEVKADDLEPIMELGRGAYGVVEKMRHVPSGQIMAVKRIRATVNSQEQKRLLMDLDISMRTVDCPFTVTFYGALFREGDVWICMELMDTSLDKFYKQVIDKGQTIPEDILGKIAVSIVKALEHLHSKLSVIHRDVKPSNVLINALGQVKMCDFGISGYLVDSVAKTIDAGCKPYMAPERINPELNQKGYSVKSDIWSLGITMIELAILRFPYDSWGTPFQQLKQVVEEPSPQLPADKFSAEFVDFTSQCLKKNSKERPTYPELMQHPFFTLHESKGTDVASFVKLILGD
Sequence of UniProt Q9HBY8 (whole entry, looked up): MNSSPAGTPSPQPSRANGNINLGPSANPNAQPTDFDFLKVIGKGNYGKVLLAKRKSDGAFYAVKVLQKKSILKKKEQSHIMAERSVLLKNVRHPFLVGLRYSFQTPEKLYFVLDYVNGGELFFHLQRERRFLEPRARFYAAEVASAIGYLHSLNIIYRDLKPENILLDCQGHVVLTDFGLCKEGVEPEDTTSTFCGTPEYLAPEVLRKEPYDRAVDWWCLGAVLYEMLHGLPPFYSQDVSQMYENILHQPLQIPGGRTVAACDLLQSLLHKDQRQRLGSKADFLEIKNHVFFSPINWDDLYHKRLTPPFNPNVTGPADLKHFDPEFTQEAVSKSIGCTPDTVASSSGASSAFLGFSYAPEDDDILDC
Sequence of UniProt Q5S007 (whole entry, looked up): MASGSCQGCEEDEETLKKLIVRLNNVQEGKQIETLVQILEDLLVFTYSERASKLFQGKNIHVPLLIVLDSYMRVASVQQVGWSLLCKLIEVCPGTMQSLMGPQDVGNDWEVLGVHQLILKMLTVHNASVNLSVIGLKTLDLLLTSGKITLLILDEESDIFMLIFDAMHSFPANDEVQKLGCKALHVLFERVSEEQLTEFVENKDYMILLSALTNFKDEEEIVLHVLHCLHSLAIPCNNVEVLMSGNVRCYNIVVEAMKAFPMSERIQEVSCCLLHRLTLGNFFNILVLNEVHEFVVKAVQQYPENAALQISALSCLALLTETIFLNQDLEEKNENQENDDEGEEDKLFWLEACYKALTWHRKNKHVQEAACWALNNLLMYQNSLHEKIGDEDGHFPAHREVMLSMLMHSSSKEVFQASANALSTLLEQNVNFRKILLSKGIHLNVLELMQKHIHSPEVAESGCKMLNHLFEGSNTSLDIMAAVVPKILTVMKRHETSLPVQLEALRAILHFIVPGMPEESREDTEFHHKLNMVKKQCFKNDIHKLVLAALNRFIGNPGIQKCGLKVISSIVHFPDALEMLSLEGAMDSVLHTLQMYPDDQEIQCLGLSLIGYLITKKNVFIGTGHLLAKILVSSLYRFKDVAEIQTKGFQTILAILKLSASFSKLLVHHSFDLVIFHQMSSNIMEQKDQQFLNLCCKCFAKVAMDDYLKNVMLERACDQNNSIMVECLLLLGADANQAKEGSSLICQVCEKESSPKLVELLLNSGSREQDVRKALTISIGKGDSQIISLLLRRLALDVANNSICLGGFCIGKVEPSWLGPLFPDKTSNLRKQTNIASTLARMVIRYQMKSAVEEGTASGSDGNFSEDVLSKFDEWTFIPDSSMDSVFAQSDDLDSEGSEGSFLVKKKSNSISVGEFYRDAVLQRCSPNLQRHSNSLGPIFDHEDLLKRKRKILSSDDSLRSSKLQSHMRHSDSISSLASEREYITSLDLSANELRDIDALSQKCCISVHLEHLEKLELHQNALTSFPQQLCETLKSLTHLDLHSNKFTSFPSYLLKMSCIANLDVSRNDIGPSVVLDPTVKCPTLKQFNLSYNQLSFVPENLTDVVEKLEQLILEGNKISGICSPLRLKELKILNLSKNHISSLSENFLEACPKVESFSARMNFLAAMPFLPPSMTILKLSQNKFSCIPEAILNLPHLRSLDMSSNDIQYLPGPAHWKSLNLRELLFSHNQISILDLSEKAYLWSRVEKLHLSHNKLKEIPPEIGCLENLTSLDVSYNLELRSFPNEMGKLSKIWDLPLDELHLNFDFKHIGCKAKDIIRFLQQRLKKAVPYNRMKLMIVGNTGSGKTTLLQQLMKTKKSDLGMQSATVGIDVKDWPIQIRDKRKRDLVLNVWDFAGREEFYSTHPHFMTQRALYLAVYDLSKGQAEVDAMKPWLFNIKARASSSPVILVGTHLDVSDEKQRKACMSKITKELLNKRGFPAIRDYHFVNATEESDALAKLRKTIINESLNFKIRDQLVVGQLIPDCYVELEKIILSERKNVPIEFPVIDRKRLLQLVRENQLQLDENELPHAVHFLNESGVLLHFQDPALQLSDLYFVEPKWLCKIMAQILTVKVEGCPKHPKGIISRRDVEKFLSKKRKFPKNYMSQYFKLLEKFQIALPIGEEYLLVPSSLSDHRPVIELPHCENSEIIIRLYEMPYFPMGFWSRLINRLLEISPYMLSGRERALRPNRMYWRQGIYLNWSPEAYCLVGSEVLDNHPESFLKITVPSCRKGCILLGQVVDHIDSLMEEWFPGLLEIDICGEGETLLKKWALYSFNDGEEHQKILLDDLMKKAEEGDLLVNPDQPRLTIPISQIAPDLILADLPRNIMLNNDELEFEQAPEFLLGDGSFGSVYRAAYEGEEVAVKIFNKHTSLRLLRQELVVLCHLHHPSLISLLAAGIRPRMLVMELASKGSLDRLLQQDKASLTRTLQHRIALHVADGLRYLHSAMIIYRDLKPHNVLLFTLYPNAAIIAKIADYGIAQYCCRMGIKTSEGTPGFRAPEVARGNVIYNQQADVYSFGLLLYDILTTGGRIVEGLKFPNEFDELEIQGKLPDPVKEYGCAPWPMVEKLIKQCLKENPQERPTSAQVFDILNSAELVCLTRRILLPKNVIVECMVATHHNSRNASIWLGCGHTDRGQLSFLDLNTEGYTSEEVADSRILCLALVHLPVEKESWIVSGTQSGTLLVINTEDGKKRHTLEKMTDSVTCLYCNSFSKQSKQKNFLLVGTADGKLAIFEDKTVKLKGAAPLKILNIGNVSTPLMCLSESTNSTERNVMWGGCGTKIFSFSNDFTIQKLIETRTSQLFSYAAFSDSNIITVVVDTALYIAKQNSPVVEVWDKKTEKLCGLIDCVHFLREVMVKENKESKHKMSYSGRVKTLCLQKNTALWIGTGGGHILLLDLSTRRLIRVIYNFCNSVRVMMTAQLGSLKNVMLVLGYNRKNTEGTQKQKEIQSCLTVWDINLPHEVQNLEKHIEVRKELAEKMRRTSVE
Sequence of UniProt Q96GD4 (whole entry, looked up): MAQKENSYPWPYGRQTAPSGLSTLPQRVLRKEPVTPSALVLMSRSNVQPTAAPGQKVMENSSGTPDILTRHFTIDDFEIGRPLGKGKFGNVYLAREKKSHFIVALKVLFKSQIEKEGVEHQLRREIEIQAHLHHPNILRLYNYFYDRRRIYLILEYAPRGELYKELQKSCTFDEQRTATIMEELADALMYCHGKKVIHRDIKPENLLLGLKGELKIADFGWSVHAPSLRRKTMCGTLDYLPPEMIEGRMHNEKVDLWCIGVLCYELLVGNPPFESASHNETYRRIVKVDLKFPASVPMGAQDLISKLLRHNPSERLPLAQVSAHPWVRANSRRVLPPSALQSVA

Set 1 — read-out: enzyme activity; mode: inhibitor; concentration: 0.5 µM; relative to: control
SMILES: Cn1cc(/C=C2\C(=O)Nc3ccc(S(N)(=O)=O)cc32)c2ccccc21
It gave 30.4% for remaining activity (Tyrosine-protein kinase BTK (BTK, Homo sapiens, UniProt Q06187)).
It gave 9.76% for remaining activity (Leucine-rich repeat serine/threonine-protein kinase 2 (LRRK2, Homo sapiens, UniProt Q5S007)).
The remaining activity was 71.1% (MAP kinase-interacting serine/threonine-protein kinase 2 (MKNK2, Homo sapiens, UniProt Q9HBH9)).
The remaining activity was 97.7% (Serine/threonine-protein kinase WNK2 (WNK2, Homo sapiens, UniProt Q9Y3S1)).
The remaining activity was 105% (Casein kinase I isoform alpha (CSNK1A1, Homo sapiens, UniProt P48729)).
RAC-gamma serine/threonine-protein kinase (AKT3, Homo sapiens, UniProt Q9Y243) — remaining activity: 97.4%.
The remaining activity was 43.8% (Tyrosine-protein kinase Lyn (LYN, Homo sapiens, UniProt P07948)).
The remaining activity was 68.2% (Mast/stem cell growth factor receptor Kit (KIT, Homo sapiens, UniProt P10721)).

Set 2 — technique: phase 2a trial; species: idiopathic pulmonary fibrosis patients
SMILES: CC(C)n1cnc(-c2ccc(F)cc2)c1-c1ncc(C(=O)Nc2ccc(N3CCN(C)CC3)cc2)[nH]1
It gave 0% for “adverse event incidence” (refers to: gingivitis; 30 mg once daily, grade 3).
For refers to: infection; 30 mg once daily, grade 1: “adverse event incidence” read 0%.
For refers to: chronic gastritis; 30 mg once daily, grade 2: “adverse event incidence” read 0%.
refers to: drug eruption; 60 mg once daily, grade 4 — “adverse event incidence”: 0%.
refers to: chronic gastritis; 60 mg once daily, grade 3 — “adverse event incidence”: 0%.
refers to: appendicitis; 60 mg once daily, grade 4 — “adverse event incidence”: 0%.
For refers to: weight decreased; 60 mg once daily, grade 1: “adverse event incidence” read 0%.
It gave 0% for “adverse event incidence” (refers to: hydroxybutyrate dehydrogenase increased; 60 mg once daily, grade 5).
refers to: synovitis; dose not given, grade 5, all arms pooled — “adverse event incidence”: 0%.
The “adverse event incidence” was 0% (refers to: hepatic enzyme abnormal; dose not given, grade 2, all arms pooled).
It gave 0% for “adverse event incidence” (refers to: liver injury; 30 mg once daily, grade 5).
refers to: chronic gastritis; dose not given, grade 3, all arms pooled — “adverse event incidence”: 0%.

Set 3 — read-out: cell-free assay; technique: competition with immobilised ligand; concentration: 1 µM
SMILES: Cc1c(NC(=O)c2cc(C(N)=O)nc3cc(F)ccc23)c(C(F)(F)F)nn1Cc1ccc(C(C)(C)C)cc1
It gave 100% for remaining binding (Tyrosine-protein kinase ABL1, phosphorylated (ABL1, Homo sapiens, UniProt P00519)).
For Tyrosine-protein kinase Fer (FER, Homo sapiens, UniProt P16591): remaining binding read 100%.
It gave 100% for remaining binding (Tyrosine-protein kinase JAK3, JH1 (JAK3, Homo sapiens, UniProt P52333)).
Epidermal growth factor receptor (EGFR, Homo sapiens, UniProt P00533, del747-752/P753S) — remaining binding: 96%.
It gave 100% for remaining binding (Serine/threonine-protein kinase Sgk2 (SGK2, Homo sapiens, UniProt Q9HBY8)).
Homeodomain-interacting protein kinase 3 (HIPK3, Homo sapiens, UniProt Q9H422) — remaining binding: 100%.
Dual specificity protein kinase CLK2 (CLK2, Homo sapiens, UniProt P49760) — remaining binding: 76%.
Tyrosine-protein kinase Tec (TEC, Homo sapiens, UniProt P42680) — remaining binding: 94%.
For Serine/threonine-protein kinase Nek4 (NEK4, Homo sapiens, UniProt P51957): remaining binding read 100%.
Insulin receptor-related protein (INSRR, Homo sapiens, UniProt P14616) — remaining binding: 96%.
For Vascular endothelial growth factor receptor 1 (FLT1, Homo sapiens, UniProt P17948): remaining binding read 100%.
For Aurora kinase B (AURKB, Homo sapiens, UniProt Q96GD4): remaining binding read 100%.
cGMP-dependent protein kinase 2 (PRKG2, Homo sapiens, UniProt Q13237) — remaining binding: 100%.
The remaining binding was 82% (Calcium/calmodulin-dependent protein kinase type 1 (CAMK1, Homo sapiens, UniProt Q14012)).
The remaining binding was 88% (Cyclin-dependent kinase 2 (CDK2, Homo sapiens, UniProt P24941)).
For Discoidin domain-containing receptor 2 (DDR2, Homo sapiens, UniProt Q16832): remaining binding read 93%.
Dual specificity mitogen-activated protein kinase kinase 6 (MAP2K6, Homo sapiens, UniProt P52564) — remaining binding: 92%.

Set 4 — species: C57BL/6 CES1-/- mice, EL4 tumour; sample: EL4 tumour; route: subcutaneous; dose: 0.3 mg/kg/day DON equivalent; time: 5 days
Compound: CC(=O)N[C@@H](Cc1c[nH]c2ccccc12)C(=O)N[C@@H](CCC(=O)C=[N+]=[N-])C(=O)OC(C)C
It gave 2.62e+06 a.u. and 2.2e+06 a.u. and 2.04e+06 a.u. and 3.4e+06 a.u. and 1.89e+06 a.u. and 2.65e+06 a.u. for “metabolite peak intensity” (UPLC-MS/MS metabolomics, refers to: gamma/beta-tocopherol; normalised to tissue mass).
LC-MS/MS metabolomics, refers to: 3'-CMP; normalised to tissue mass; higher = more metabolite — “metabolite peak intensity”: 3.29e+06 a.u. and 5.22e+06 a.u. and 4.7e+06 a.u. and 2.6e+06 a.u. and 4.71e+06 a.u. and 4.25e+06 a.u.
The “metabolite peak intensity” was 72000 a.u. and 92900 a.u. and 57400 a.u. and 105000 a.u. and 80200 a.u. and 60800 a.u. (LC-MS/MS metabolomics, refers to: 3-methylhistidine; normalised to tissue mass; higher = more metabolite).
The “metabolite peak intensity” was 136000 a.u. and 97600 a.u. and 108000 a.u. and 143000 a.u. and 144000 a.u. (LC-MS/MS metabolomics, refers to: 2-methylcitrate/homocitrate; normalised to tissue mass; higher = more metabolite).
LC-MS/MS metabolomics, refers to: methionine; higher = more metabolite — “metabolite peak intensity”: 1.96e+09 a.u. and 1.58e+09 a.u. and 2.09e+09 a.u. and 1.83e+09 a.u. and 2.1e+09 a.u. and 1.52e+09 a.u.
It gave 158000 a.u. and 110000 a.u. and 104000 a.u. and 137000 a.u. and 139000 a.u. and 180000 a.u. for “metabolite peak intensity” (LC-MS/MS metabolomics, refers to: 2'-deoxyguanosine; normalised to tissue mass; higher = more metabolite).

For quick reference, copied from above (set 3):
The remaining binding was 88% (Cyclin-dependent kinase 2 (CDK2, Homo sapiens, UniProt P24941)).
For Tyrosine-protein kinase Fer (FER, Homo sapiens, UniProt P16591): remaining binding read 100%.
For Aurora kinase B (AURKB, Homo sapiens, UniProt Q96GD4): remaining binding read 100%.
It gave 100% for remaining binding (Serine/threonine-protein kinase Sgk2 (SGK2, Homo sapiens, UniProt Q9HBY8)).
For Vascular endothelial growth factor receptor 1 (FLT1, Homo sapiens, UniProt P17948): remaining binding read 100%.
